Measurements pooled from the literature.
Lines come from different studies, so protocols differ. Several values in a cell are separate wells, animals, samples, runs or records. ± marks the error that the study gave.

Compound | assay | system | setting | how to read | measurement | result
C[N+](C)(C)CC(CC(=O)[O-])OC(=O)CCC(=O)Nc1ccn([C@@H]2O[C@H](CO)[C@@H](O)C2(F)F)c(=O)n1 (some centres unmarked) |  | extracted rat plasma | 3200.00 ng/mL, 8 h, 10 °C, autosampler stability, high QC |  | measured concentration | 3130 ± 138 ng/mL
CCCC[C@@H]1NC(=O)[C@@H](NC(=O)[C@H](CCC(=O)O)NC(=O)CNC(=O)CN2CCN(CC(=O)O)CCN(CC(=O)O)CCN(CC(=O)O)CC2)CCCCNC(=O)C[C@@H](C(N)=O)NC(=O)[C@H](C(C)C)NC(=O)[C@@H]2CCCN2C(=O)[C@H](CCCNC(=N)N)NC(=O)CNC(=O)[C@H](Cc2c[nH]c3ccccc23)NC(=O)[C@H](CCCNC(=N)N)NC(=O)[C@@H](Cc2ccccc2)NC(=O)[C@H](Cc2c[nH]cn2)NC(=O)[C@H](CCC(=O)O)NC1=O [gallium-67 labelled] |  | C57 mice, B16/F1 flank melanoma | intravenous, 2 h, together with: blocking peptide 10 µg | relative to: tumour over muscle | tissue ratio | 4.11
CC(C)c1cnc(-c2cc(Cl)ccc2F)cc1Nc1ccncc1C(=O)NC(CO)CO | item: Diarrhea | solid tumour patients | oral, dose not given, phase I monotherapy |  | treatment-related adverse events | 7.1%
CC(C)[C@H](NC(=O)CNC(=O)[C@H](CCC(N)=O)NC(=O)[C@H](C)N)C(=O)O |  | human, plasma | intravenous infusion, 30 mg/kg single, 15 min infusion, geometric mean |  | AUC(0-inf) | 490 ng·h/mL
CCCC[C@H](NC(=O)[C@H](CC(C)C)N(C)C(=O)CNC(=O)[C@@H](NC(=O)[C@H](Cc1ccccc1)NC(=O)[C@H](CCCCN)NC(=O)[C@@H](N)CC(=O)O)C(C)C)C(N)=O |  | anesthetized Gottingen minipig | subcutaneous, 30 µg/kg | relative to: baseline | mean arterial pressure | -5.98 ± 4.75%
COC[C@@H](CC(C)C)NC(=O)c1ccc(CO)c(C)c1 | LC-MS | Sprague-Dawley rat, both sexes, rat liver microsomes | 10 µM of parent drug, 10 min, pH 7.4, together with: NADPH | relative to: parent drug at time zero | metabolite peak area | 28.5%
CCCCCCCCCCCCCCCC(=O)N[C@@H](CCCCN)C(=O)N[C@@H](CCCCN)C(=O)N[C@@H](CO)C(=O)N[C@@H](CCCNC(=N)N)C(=O)N[C@@H](C)C(=O)N[C@@H](CC(C)C)C(=O)N[C@@H](Cc1ccccc1)C(N)=O |  | CAD/ACS patients undergoing catheterization | 0.3 and 0.5 mg/kg |  | tolerability | not toxic
COc1cc(N(C)CCN(C)C)c(NC(=O)CCSCC(N)C(=O)O)cc1Nc1nccc(-c2cn(C3CC3)c3ccccc23)n1 (centres unmarked) | radio-HPLC | human, feces | dose not given, 96 to 240 h, sample holds 16.61% dose | relative to: sample radioactivity | share of radioactivity | 4.48%
CCCCCCCC(=O)OC[C@H](NC(=O)[C@H](CO)NC(=O)CN)C(=O)N[C@@H](Cc1ccccc1)C(=O)N[C@@H](CC(C)C)C(=O)N[C@@H](CO)C(=O)N1CCC[C@H]1C(=O)N[C@@H](CCC(=O)O)C(=O)N[C@@H](Cc1cnc[nH]1)C(=O)N[C@@H](CCC(N)=O)C(=O)N[C@@H](CCCNC(=N)N)C(=O)N[C@H](C(=O)N[C@@H](CCC(N)=O)C(=O)N[C@@H](CCC(N)=O)C(=O)N[C@@H](CCCNC(=N)N)C(=O)N[C@@H](CCCCN)C(=O)N[C@@H](CCC(=O)O)C(=O)N[C@@H](CO)C(=O)N[C@@H](CCCCN)C(=O)N[C@@H](CCCCN)C(=O)N1CCC[C@H]1C(=O)N1CCC[C@H]1C(=O)N[C@@H](C)C(=O)N[C@@H](CCCCN)C(=O)N[C@@H](CC(C)C)C(=O)N[C@@H](CCC(N)=O)C(=O)N1CCC[C@H]1C(=O)N[C@@H](CCCNC(=N)N)C(=O)O)C(C)C |  | chronic HFrEF patients non-paced | intravenous infusion, 0.1 µg/kg/min, end of 120 min infusion |  | heart rate | 69.3 ± 12.9 bpm
COc1ccc([C@@H]2CC(=O)c3c(O)cc(O[C@@H]4O[C@H](CO[C@@H]5O[C@@H](C)[C@H](O)[C@@H](O)[C@H]5O)[C@@H](O)[C@H](O)[C@H]4O)cc3O2)cc1O |  | rat plasma | 15.62 ng/mL, three freeze-thaw cycles |  | measured concentration | 17.1 ± 0.38 ng/mL
C[C@H]1CO[C@@H]2Cn3cc(C(=O)NCc4ccc(F)cc4F)c(=O)c(O[C@@H]4O[C@H](C(=O)O)[C@@H](O)[C@H](O)[C@H]4O)c3C(=O)N12 |  | humans UGT1A1 wild type | intramuscular, dose not given, 4 weeks post-injection |  | participants with detectable plasma drug | 100%
CCOc1ccc2c(c1)C(C)=CC(C)(C)N2c1cc(OCC)cc2c1NC(C)(C)C=C2C | LC-MS/MS | Holstein cattle, subcutaneous fat | oral in feed, 50 mg/kg complete feed ethoxyquin, 42 days |  | highest tissue residue | 112 ng/g
O=C(CCc1ccc(CNC(C(=O)OC2CCCC2)C2CCCCC2)cn1)NO (centres unmarked) |  | healthy male volunteers | dose not given |  | tolerability | not toxic
Cc1[nH]c(/C=C2\C(=O)Nc3ccc(F)cc32)c(C)c1NC(=O)CCN1CCN(C)CC1 |  | Beagle dog, both sexes, plasma | oral, 3 mg/kg |  | MRT(0-t) | 18.6 ± 4.47 h
CCNC(=O)OCc1c(COC(=O)NCC)c(-c2ccc(OC)cc2)n2c1Cc1ccccc1-2 |  | BALB/c nude mice, blood | dose not given, day 10 |  | LDH activity | 473 ± 8 U/L
COc1cc2c(cc1OC)CN(CCCCn1ccc3cc(OCC[18F])ccc31)C2 |  | ICR mice, male, small intestine | intravenous, 30 min |  | uptake | 15.8 ± 1.4 %ID/organ
CCCCCC(O)C=CC1OC2OC(C1CC=CCCCC(=O)O)C2(F)F (centres unmarked) |  | phosphate buffer with DMSO | concentration not given, pH 7.40 |  | hydrolysis half-life | > 280 days
CCCC[C@H](NC(C)=O)C(=O)N[C@H]1CC(=O)NCCCC[C@@H](C(=O)N[C@@H](C(=O)N2CCC[C@@H]2C(N)=O)C(C)C)NC(=O)[C@H](Cc2c[nH]c3ccccc23)NC(=O)[C@H](CCCN=C(N)N)NC(=O)[C@@H](Cc2ccc3ccccc3c2)NC(=O)[C@@H]2CCCN2C1=O |  | healthy dogs, plasma | 2.25 mg/kg per day, day 28, median |  | plasma phosphorus | 4.1 mg/dL

Compound | assay | system | setting | how to read | measurement | result
NC[C@@H](C(=O)Nc1ccc(-c2cn[nH]c2)cc1)c1ccccc1 | OECD 405 eye irritation | New Zealand White rabbit, eye | topical, 0.1%, 80 h (day 4), scale 0 to 2 | direction not given | iris score | 0
CCCC[C@H](NC(=O)CNC(=O)CNC(=O)CN1CCN(CC(=O)O)CCN(CC(=O)O)CCN(CC(=O)O)CC1)C(=O)N[C@H]1CC(=O)NCCCC[C@@H](C(N)=O)NC(=O)[C@H](Cc2c[nH]c3ccccc23)NC(=O)[C@H](CCCNC(=N)N)NC(=O)[C@@H](Cc2ccccc2)NC(=O)[C@H](Cc2c[nH]cn2)NC1=O [copper-64 labelled] |  | female C57 mouse, B16/F1 melanoma | intravenous, 0.037 MBq, 2 h | relative to: tumour over liver | uptake ratio | 0.5
Cc1[nH]nc2c1N=C(c1ccccc1Cl)c1cnc(N3CCOCC3)cc1N2 | item: total radioactivity | human male, plasma | oral, 10 mg |  | apparent volume (Vz/F) | 206 L
[11CH3]c1ccc2nc(C3CCC3)n(-c3ccc4[nH]ncc4c3)c2n1 |  | standard human adult, spleen |  |  | absorbed radiation dose | 2.4 µSv/MBq
COC(=O)C(c1ccccc1Cl)N1CCC(SCC(=O)c2cccc(OC)c2)C(=CC(=O)O)C1 (centres unmarked) | LC-MS/MS | human plasma | 2 ng/mL, 45 days, -80 °C |  | measured concentration | 2 ± 0.1 ng/mL
O=C(c1cccc(N=Nc2ccc(OC3CC(N4CCCCC4)C3)cc2)c1)N1CCCC1 (centres unmarked) |  | Tris-HCl buffer, 1% DMSO-d6 | 25 µM, pH 7.4, illumination 434 ± 9 nm |  | photoisomerization half-life | 8 ± 0.6 s
O=C([O-])CN1CCN(CC(=O)[O-])CCN(CC(=O)NCC2CCC(C(=O)NC(Cc3ccc4ccccc4c3)C(=O)NCCCCC(NC(=O)NC(CCC(=O)O)C(=O)O)C(=O)O)CC2)CCN(CC(=O)[O-])CC1.[44Sc+3] (centres unmarked) | PET/CT dosimetry, OLINDA/EXM | human, spleen |  |  | residence time | 0.018 h and 0.086 h and 0.083 h
C=CC(=O)Nc1cc(Nc2nccc(-c3cn(C4CC4)c4ccccc34)n2)c(OC)cc1N(C)CCNC | LC-RAM/HRMS | human male, plasma | oral, 110 mg, 6 h | relative to: total radioactivity | share of radioactivity | 8.16%
COc1cc(OC)cc(C2=C3C(C)=C(I)C(C)=[N+]3[B-](F)(F)n3c(/C=C/c4c[nH]c5ccc([N+](=O)[O-])cc45)c(I)c(C)c32)c1 |  | DMSO |  |  | Stokes shift | 716 cm⁻¹
CCc1cc(Nc2nc(-c3ccc(-n4cnc(C)c4)c(F)c3)cs2)c(C)cc1C |  | human, both sexes, plasma | oral, 100 mg once daily, day 14, multiple dose, geometric mean |  | apparent terminal volume (Vz/F) | 392000 mL
C=CC(=C)CC[C@]1(C)[C@H](C)C[C@H](OC(=O)CCCCCCC)[C@@]23C(=C[C@H](OC(C)=O)C[C@@H]12)[C@@H](OC(C)=O)O[C@H]3OC(C)=O | haemolysis |  | 20 µM |  | haemolysis | 1%
[11CH3]Oc1ccc(-c2nc(CSc3nc(N)c(C#N)c(-c4ccc5c(c4)OCO5)c3C#N)cs2)cc1 | PET | male Wistar rat, brain | baseline |  | whole brain uptake | 0.28 ± 0.03 g/mL
C#CCOc1ccc(/C=C2\SC(=O)N(CC(=O)NCc3ccccc3)C2=O)cc1 | inverse Kirkwood-Buff integrals | binary solvent mixture | concentration not given, 298.15 K, mole fraction x1 1.00 |  | correlation volume | 6200 cm³/mol
Cc1cc2c(cc1C1(c3ncc(C(=O)O)cn3)CC1)C(C)(C)CCC2(C)C |  | Sprague-Dawley rat, male | oral, 100 mg/kg, 1 h, sesame oil vehicle |  | blood triglycerides | 36 ± 6.4 mg/dL
[123I]c1ccc2nc(-c3ccc(-n4ccnn4)nc3)cn2c1 |  | male Wistar rat, brain | intravenous, 4 MBq, 1 h |  | tracer uptake | 0.044 %ID/g
CC(C)[C@H](CO)Nc1nc(Nc2ccc(C(=O)NCCNS(=O)(=O)c3cccc4c(N(C)C)cccc34)c(Cl)c2)c2ncn(C(C)C)c2n1 |  | C57BL/6 mouse, brain cortex | intraperitoneal, 20 mg/kg, 4 h |  | concentration | 530 ± 170 nM
CC(C)(C)NCC(SS(=O)(=O)O)c1ccccc1 (centres unmarked) |  | Swiss Webster mouse, female, plasma | intravenous, 15 mg/kg, AUC to infinity |  | initial volume of distribution | 0.403 L/kg

For quick reference, copied from above:
Compound | assay | system | setting | how to read | measurement | result
COc1ccc([C@@H]2CC(=O)c3c(O)cc(O[C@@H]4O[C@H](CO[C@@H]5O[C@@H](C)[C@H](O)[C@@H](O)[C@H]5O)[C@@H](O)[C@H](O)[C@H]4O)cc3O2)cc1O |  | rat plasma | 15.62 ng/mL, three freeze-thaw cycles |  | measured concentration | 17.1 ± 0.38 ng/mL
C[C@H]1CO[C@@H]2Cn3cc(C(=O)NCc4ccc(F)cc4F)c(=O)c(O[C@@H]4O[C@H](C(=O)O)[C@@H](O)[C@H](O)[C@H]4O)c3C(=O)N12 |  | humans UGT1A1 wild type | intramuscular, dose not given, 4 weeks post-injection |  | participants with detectable plasma drug | 100%
CCOc1ccc2c(c1)C(C)=CC(C)(C)N2c1cc(OCC)cc2c1NC(C)(C)C=C2C | LC-MS/MS | Holstein cattle, subcutaneous fat | oral in feed, 50 mg/kg complete feed ethoxyquin, 42 days |  | highest tissue residue | 112 ng/g
O=C(CCc1ccc(CNC(C(=O)OC2CCCC2)C2CCCCC2)cn1)NO (centres unmarked) |  | healthy male volunteers | dose not given |  | tolerability | not toxic
